Published values collected from several papers.
Compare with care: the assays were run in different laboratories. Several values in a cell are separate wells, animals, samples, runs or records. ± gives the spread as reported.

COC[C@@H](CC(C)C)NC(=O)c1ccc(C)c(C)c1  cells with structural aberrations (primary human lymphocytes; 225 µg/mL, 4 (unit not given), with S9): 0.5%
Cc1cc(C(=O)NC(C)(C)COc2cccc3c2C(N)=NS(=O)(=O)N3)cc(C)n1  cytotoxicity (human peripheral blood lymphocytes; CBPI, preliminary test; 20 µg/mL, 4 h, with: rat liver S9; reference: vehicle control): 10%
COc1cc2ncnc(Nc3ccc(Oc4ccccc4)c(C)c3C)c2cc1OC.Cl  viability (COLO 205 (BRAF V600E); resazurin; 3 µM, 72 h, unit not given, with: trametinib; reference: DMSO): 0.69
COC(=O)c1cn(C)c2ccc(-c3cccnc3)cc12  confluence (COS-7; 30 µM, 24 h, 0.1% DMSO, unit not given; reference: vehicle control): 0.77 ± 0.11
Cc1cc(O)c2c(c1)C(=O)c1cccc(O)c1C2=O  cell viability (HepaRG co-cultured with HK-2; MTT; 66.67 µM, 24 h; reference: untreated control): 91.7 ± 8.43%
CCN(CC)Cc1cc(Nc2ccnc3cc(Cl)ccc23)ccc1O  metabolic activity (COS-7; WST-8; 30 µM, 24 h, 0.1% DMSO, unit not given; reference: vehicle control): 0.6 ± 0.38
COc1cc2c(c(O)c1OC)C(=O)c1c(cc(C)c(O)c1OC)C2=O  cell viability (HepaRG co-cultured with HK-2; MTT; 66.67 µM, 48 h; reference: untreated control): 69.8 ± 8.02%
CC1CS(=O)(=O)CCN1/N=C/c1ccc([N+](=O)[O-])o1 (centres unmarked)  viability (PMA-differentiated THP-1 macrophages; 100 µM, 24 h): 109 ± 9.6%
COc1cc2ncnc(Nc3ccc(Oc4ccccc4)cc3C)c2cc1OC.O=C(O)C(F)(F)F  viability (COLO 205 (BRAF V600E); resazurin; 1 µM, 72 h, with: trametinib 0 nM): 0.712 fraction of control
CCC(=O)NS(=O)(=O)c1ccc(-c2c(-c3ccccc3)noc2C)cc1  apoptosis (COS-7; 100 µM, 24 h, 0.1% DMSO, unit not given; reference: control): 0.84 ± 0.15
CC1=NN(c2ccc(C(=O)O)cc2)C(=O)/C1=C\c1ccc(-c2cc(C)c(C)cc2[N+](=O)[O-])o1  viability (OCI-Ly1; 0.5 µM, 120 h): 79.4%
CC(=O)Nc1cccc(-n2c(=O)n(C3CC3)c(=O)c3c(Nc4ccc(I)cc4F)n(C)c(=O)c(C)c32)c1  viability (SW1417; 0.1 µM, 72 h, unit not given; reference: DMSO): 0.768 and 0.641 and 0.37 and 0.993 and 0.452 and 0.775
COc1c(O[C@@H]2O[C@H](CO)[C@@H](O)[C@H](O)[C@H]2O)c(C)cc2c1C(=O)c1c(O)cccc1C2=O  cell viability (HepaRG co-cultured with HK-2; MTT; 133.33 µM, 24 h; reference: untreated control): 52.5 ± 9.34%
Oc1ccc(/C=C/c2cc(O)cc(O)c2)cc1  viability (OCI-Ly1; 0.1 µM, 120 h): 193%

Repeated from above:
CCC(=O)NS(=O)(=O)c1ccc(-c2c(-c3ccccc3)noc2C)cc1  apoptosis (COS-7; 100 µM, 24 h, 0.1% DMSO, unit not given; reference: control): 0.84 ± 0.15
